# Experimental data from different studies.
# Protocols differ between the studies behind these lines. Several values in a cell are separate wells, animals, samples, runs or records. ± marks the error that the study gave.
# Chain of UniProt O75608 (whole entry, looked up): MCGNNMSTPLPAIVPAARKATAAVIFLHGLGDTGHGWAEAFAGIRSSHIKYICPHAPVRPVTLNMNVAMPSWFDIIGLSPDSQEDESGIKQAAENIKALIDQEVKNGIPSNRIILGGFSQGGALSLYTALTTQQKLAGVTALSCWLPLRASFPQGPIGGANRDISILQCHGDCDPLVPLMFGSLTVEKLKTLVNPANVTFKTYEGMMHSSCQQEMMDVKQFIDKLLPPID
# Chain of UniProt P10632 (whole entry, looked up): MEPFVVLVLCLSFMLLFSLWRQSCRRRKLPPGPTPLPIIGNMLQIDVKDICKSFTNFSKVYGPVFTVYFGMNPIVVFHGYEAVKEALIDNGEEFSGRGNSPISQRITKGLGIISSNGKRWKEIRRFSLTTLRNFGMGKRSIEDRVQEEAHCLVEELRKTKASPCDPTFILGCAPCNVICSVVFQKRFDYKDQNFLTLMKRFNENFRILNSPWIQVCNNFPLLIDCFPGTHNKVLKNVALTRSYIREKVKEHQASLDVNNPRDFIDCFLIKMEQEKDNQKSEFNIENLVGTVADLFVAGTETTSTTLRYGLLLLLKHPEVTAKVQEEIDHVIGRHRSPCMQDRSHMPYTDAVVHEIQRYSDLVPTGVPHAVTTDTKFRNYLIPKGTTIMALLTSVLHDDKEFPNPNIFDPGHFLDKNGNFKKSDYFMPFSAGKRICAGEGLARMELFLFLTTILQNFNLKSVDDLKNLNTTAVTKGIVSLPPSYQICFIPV
SMILES,tested on,test,test system,setting,scale,endpoint,result
C[C@]1(CO)Cc2ncn(-c3ccc(C#N)c(Cl)c3)c2C(=O)O1,,,human,2 mg single dose,,subjects with any TEAE,16.7%
O=C1Nc2cc3[nH]nc(-c4ccncc4)c3cc2CN1Cc1ccccc1,,CTCAE v4.03,advanced solid tumour patients,"intravenous, 4.8 mg/kg, schedules 1/2",,patients with decreased appetite,25%
C[C@@H](O)[C@@H](CO)NC(=O)[C@@H](CCCNC(=N)N)NC(=O)[C@@H]1CCCN1C(=O)[C@@H]1CSSC[C@H](NC(=O)[C@H](Cc2ccccc2)NC(=O)CN2CCN(CC(=O)O)CCN(CC(=O)O)CCN(CC(=O)O)CC2)C(=O)N[C@@H](Cc2ccc(O)cc2)C(=O)N[C@@H](Cc2ccccc2)C(=O)N[C@@H](CCC(N)=O)C(=O)N[C@@H](CC(N)=O)C(=O)N1 [gallium-68 labelled],,,"Wistar rat, healthy, Lacrimal gland","intravenous, 8 MBq, 30 min",,tissue uptake,0.15 %ID/g
CC(C)CC(=O)OC[C@H]1O[C@@](C#N)(c2ccc3c(N)ncnn23)[C@H](O)[C@@H]1O,"Cytochrome P450 2C8 (CYP2C8, Homo sapiens, UniProt P10632)",metabolic stability,recombinant enzyme,"1 µM, 30 min",,remaining compound,1.39 ± 0.0784%
CN1CC[C@@H](c2c(O)cc(O)c3c(=O)cc(-c4ccc(C(F)(F)F)cc4Cl)oc23)[C@@H]1CO,,item: Neutropenia,AML,"oral, 100 mg, intermittent dosing",,patients with adverse event,33.3%
O=C1c2c(O)c(=O)ccn2N([C@@H]2c3ccccc3SCc3c2ccc(F)c3F)[C@@H]2COCCN12,,,"BALB/c mice, plasma","oral, 15 mg/kg baloxavir marboxil, 1 h",,plasma concentration,139 ng/mL
O=c1ccc2cc3ccoc3cc2o1,,,rat plasma,"200 ng/mL, 2 weeks, -70 °C, post-preparative stability",,accuracy,98.1%
O=S(=O)(Nc1ccccc1)c1ccc(NC(=S)Nc2ccccc2)cc1,,item: NE%,"male mouse, blood","oral, 5 mg/kg daily, 14 days",,blood cell fraction,17.6%
COc1cc2c(Oc3ccc4[nH]c(C)cc4c3F)ccnc2cc1OCC1(N)CC1,,,paediatric recurrent refractory sarcoma,12 mg,,grade 3 AST elevation,0%
CC(C)C[C@H](NC(=O)[C@H](CC(C)C)NC(=O)[C@@H](N)[C@@H](C)O)C(=O)N[C@@H](CCCCN)C(=O)N[C@@H](CCCCN)C(=O)N[C@H](C(=O)N[C@@H](CC(C)C)C(=O)N[C@@H](CCCCN)C(=O)N[C@@H](C)C(=O)N[C@@H](C)C(=O)N[C@@H](C)C(=O)N[C@@H](CCCCN)C(=O)NCCCC[C@H](NC(=O)[C@H](CCCCN)NC(=O)[C@H](C)NC(=O)[C@H](C)NC(=O)[C@H](C)NC(=O)[C@H](CCCCN)NC(=O)[C@H](CC(C)C)NC(=O)[C@@H](NC(=O)[C@H](CCCCN)NC(=O)[C@H](CCCCN)NC(=O)[C@H](CC(C)C)NC(=O)[C@H](CC(C)C)NC(=O)[C@@H](N)[C@@H](C)O)C(C)C)C(=O)NCCCC[C@H](NC(=O)[C@H](CCCCNC(=O)[C@H](CCCCN)NC(=O)[C@H](C)NC(=O)[C@H](C)NC(=O)[C@H](C)NC(=O)[C@H](CCCCN)NC(=O)[C@H](CC(C)C)NC(=O)[C@@H](NC(=O)[C@H](CCCCN)NC(=O)[C@H](CCCCN)NC(=O)[C@H](CC(C)C)NC(=O)[C@H](CC(C)C)NC(=O)[C@@H](N)[C@@H](C)O)C(C)C)NC(=O)[C@H](CCCCN)NC(=O)[C@H](C)NC(=O)[C@H](C)NC(=O)[C@H](C)NC(=O)[C@H](CCCCN)NC(=O)[C@H](CC(C)C)NC(=O)[C@@H](NC(=O)[C@H](CCCCN)NC(=O)[C@H](CCCCN)NC(=O)[C@H](CC(C)C)NC(=O)[C@H](CC(C)C)NC(=O)[C@@H](N)[C@@H](C)O)C(C)C)C(=O)NCCC(=O)O)C(C)C,,,human red blood cells,"2 h, 37 °C",,hemolytic concentration,5 µM
O=c1oc2c(O)c(O)cc3c(=O)oc4c(O)c(O)cc1c4c23,,subacute oral toxicity,BALB/c mice,"oral, 1000 mg/kg/day, 28 days",,liver weight,1.33 g
CC[C@H](C)[C@H](NC(=O)[C@H](Cc1ccccc1)NC(=O)[C@H](CCC(=O)O)NC(=O)[C@H](CCCNC(=N)N)NC(=O)[C@H](C)NC(=O)[C@H](C)NC(=O)[C@H](CCC(N)=O)NC(=O)[C@H](CCC(=O)O)NC(=O)[C@H](CCC(=O)O)NC(=O)[C@H](CC(C)C)NC(=O)[C@H](Cc1ccc(O)cc1)NC(=O)[C@H](CO)NC(=O)[C@H](CO)NC(=O)[C@@H](NC(=O)[C@H](CC(=O)O)NC(=O)[C@H](CO)NC(=O)[C@@H](NC(=O)[C@H](Cc1ccccc1)NC(=O)[C@@H](NC(=O)CNC(=O)[C@H](CCC(=O)O)NC(=O)[C@H](C)NC(=O)CCc1c[nH]cn1)[C@@H](C)O)[C@@H](C)O)C(C)C)C(=O)N[C@@H](C)C(=O)N[C@@H](Cc1c[nH]c2ccccc12)C(=O)N[C@@H](CC(C)C)C(=O)N[C@H](C(=O)N[C@@H](CCCNC(=N)N)C(=O)NCC(=O)N[C@@H](CCCNC(=N)N)C(=O)N[C@@H](CCCCNC(=O)COCCOCCNC(=O)COCCOCCNC(=O)CC[C@H](NC(=O)CCCCCCCCCCCCCCCCC(=O)O)C(=O)O)C(=O)NCC(=O)NCC(=O)N[C@@H](CO)C(=O)N[C@@H](CCCCNc1c(NCCCCCN(O)C(=O)CCC(=O)NCCCCCN(O)C(=O)CCC(=O)NCCCCCN(O)C(C)=O)c(=O)c1=O)C(=O)O)C(C)C [zirconium-89 labelled],,ex vivo gamma counting,"rat, duodenum content","subcutaneous, 3 nmol/kg, 4 h, with: [89Zr]-labelled peptide",,tissue uptake,0.08 %ID/g
COc1ncnn2ccc(-c3cnc4nc(C)n(Cc5nnc([C@@H](C)F)o5)c4c3)c12,,,human patients,"oral, dose not given, grade 1 adverse drug reaction",,incidence of Pyrexia,7.1%
CC[C@H](C)[C@@H]1NC(=O)[C@@H]2CCCN2C(=O)[C@H](CC(C)C)NC(=O)[C@H](CC(C)C)NC(=O)CNC(=O)[C@@H](NC(=O)[C@@H](NC(=O)[C@H](CC(=O)O)NC(=O)CNC(=O)[C@@H](NC(=O)[C@H](C)NC(=O)CNC(=O)[C@H](CCCCN)NC(=O)[C@H](CC(C)C)NC(=O)[C@H](CC(C)C)NC(=O)[C@H](CCCCN)NC(=O)CNC(=O)[C@@H](NC(=O)[C@@H](N)CC(C)C)C(C)C)C(C)C)C(C)C)CSSC[C@@H](C(=O)O)NC1=O,,"RNA-seq, item: Gnas mRNA","mouse traumatic brain injury, frontal cortex and hippocampus",dose not given,reference: TBI plus compound vs TBI,log2 fold change,-1.05
C[C@@H]1OC(=O)NN=C1c1ccc(-c2ccc(F)cc2)c(C(F)(F)F)c1,,"phase I trial, item: Cough worst grade 1",human patients,"dose not given, all dose groups",,patients with adverse event,20%
c1ccc(CCc2nnn[nH]2)cc1,,,,"pH 7.4, third measurement",,logD,-0.17
COc1ccc(-c2c(-c3ccc(C#N)c(F)c3)nc(N3CCC(N)CC3)n(C)c2=O)cc1F,,item: maculo-papular rash,human patients,"oral, dose not given, dose escalation",,grade 3-4 TRAE incidence,0%
O=C(c1ccc(Cl)cc1)N1CCN2C(=O)N(OC(=O)N3CCOc4ccccc43)C(=O)C2C1 (stereo not shown),"Acyl-protein thioesterase 1 (Homo sapiens, UniProt O75608)",MS-based ABPP,SW-620 conditioned medium,"10 µM, 1 h, 37 °C","reference: compound over DMSO, lower = more inhibition",peptide ratio,0.83 and 0.99 and 1.01 and 0.98
O=c1nc(NO)ccn1[C@@H]1O[C@H](CO)[C@@H](O)[C@H]1O,,,rat fetus dialysate,"1000 ng/mL, 6 h, 10 °C, high QC concentration, with: molnupiravir",,autosampler stability,99.2 ± 3.95%

# Repeated from above:
SMILES,tested on,test,test system,setting,scale,endpoint,result
CC[C@H](C)[C@H](NC(=O)[C@H](Cc1ccccc1)NC(=O)[C@H](CCC(=O)O)NC(=O)[C@H](CCCNC(=N)N)NC(=O)[C@H](C)NC(=O)[C@H](C)NC(=O)[C@H](CCC(N)=O)NC(=O)[C@H](CCC(=O)O)NC(=O)[C@H](CCC(=O)O)NC(=O)[C@H](CC(C)C)NC(=O)[C@H](Cc1ccc(O)cc1)NC(=O)[C@H](CO)NC(=O)[C@H](CO)NC(=O)[C@@H](NC(=O)[C@H](CC(=O)O)NC(=O)[C@H](CO)NC(=O)[C@@H](NC(=O)[C@H](Cc1ccccc1)NC(=O)[C@@H](NC(=O)CNC(=O)[C@H](CCC(=O)O)NC(=O)[C@H](C)NC(=O)CCc1c[nH]cn1)[C@@H](C)O)[C@@H](C)O)C(C)C)C(=O)N[C@@H](C)C(=O)N[C@@H](Cc1c[nH]c2ccccc12)C(=O)N[C@@H](CC(C)C)C(=O)N[C@H](C(=O)N[C@@H](CCCNC(=N)N)C(=O)NCC(=O)N[C@@H](CCCNC(=N)N)C(=O)N[C@@H](CCCCNC(=O)COCCOCCNC(=O)COCCOCCNC(=O)CC[C@H](NC(=O)CCCCCCCCCCCCCCCCC(=O)O)C(=O)O)C(=O)NCC(=O)NCC(=O)N[C@@H](CO)C(=O)N[C@@H](CCCCNc1c(NCCCCCN(O)C(=O)CCC(=O)NCCCCCN(O)C(=O)CCC(=O)NCCCCCN(O)C(C)=O)c(=O)c1=O)C(=O)O)C(C)C [zirconium-89 labelled],,ex vivo gamma counting,"rat, duodenum content","subcutaneous, 3 nmol/kg, 4 h, with: [89Zr]-labelled peptide",,tissue uptake,0.08 %ID/g
CC[C@H](C)[C@@H]1NC(=O)[C@@H]2CCCN2C(=O)[C@H](CC(C)C)NC(=O)[C@H](CC(C)C)NC(=O)CNC(=O)[C@@H](NC(=O)[C@@H](NC(=O)[C@H](CC(=O)O)NC(=O)CNC(=O)[C@@H](NC(=O)[C@H](C)NC(=O)CNC(=O)[C@H](CCCCN)NC(=O)[C@H](CC(C)C)NC(=O)[C@H](CC(C)C)NC(=O)[C@H](CCCCN)NC(=O)CNC(=O)[C@@H](NC(=O)[C@@H](N)CC(C)C)C(C)C)C(C)C)C(C)C)CSSC[C@@H](C(=O)O)NC1=O,,"RNA-seq, item: Gnas mRNA","mouse traumatic brain injury, frontal cortex and hippocampus",dose not given,reference: TBI plus compound vs TBI,log2 fold change,-1.05
